Experimental data collected from several papers.
A part holds a random share of what one study measured.

Sample 1
Target: Replicase polyprotein 1ab, main protease (rep, Severe acute respiratory syndrome coronavirus 2, UniProt P0DTD1)
Effect on: enzyme activity
Action: inhibitor
Concentration: 20 µM
Notes: with DTT
SMILES	inhibition
N=C(N)N=Nc1ccc(NNC(=N)S)cc1	1.78%
CN(C)CCNc1nc2cc(O)ccc2c2c1C(=O)c1ccccc1-2	42.2%
CCC[C@H](NC(=O)/C(C#N)=C/c1cccc(Br)n1)c1ccccc1	-6.59%

Sample 2
Target: Phosphate system positive regulatory protein PHO4, full length, GST-tagged (PHO4, Saccharomyces cerevisiae, UniProt P07270, residues 1-312)
UniProt P07270, sequence (whole entry, looked up): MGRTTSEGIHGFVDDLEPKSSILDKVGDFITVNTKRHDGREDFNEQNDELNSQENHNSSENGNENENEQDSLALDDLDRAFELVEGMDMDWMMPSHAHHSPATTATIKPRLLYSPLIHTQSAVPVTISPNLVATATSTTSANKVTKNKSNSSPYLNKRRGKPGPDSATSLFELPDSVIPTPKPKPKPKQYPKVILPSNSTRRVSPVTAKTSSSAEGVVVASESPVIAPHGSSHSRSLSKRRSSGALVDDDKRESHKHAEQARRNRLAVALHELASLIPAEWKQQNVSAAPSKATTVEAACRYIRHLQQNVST
Technique: competition protein-binding microarray
Molecule type: double-stranded DNA, one strand shown
Sample: in vitro
Concentration: 2 µM
Notes: whole 60-bp probe, lowest competitor level
Added: Cbf1 competitor, 0.05 µM
Direction: higher = stronger binding
All sequences stand within: … GTCTTGATTCGCTTGACGCTGCTG
Oligonucleotide	fluorescence intensity
TTGCGCTGCCCAATCCACGTGGAACAATCCTGTTCA	17500 a.u.
TCTTACCTCCGTTAGCACGTCGTTGGTTAGGCTACT	6310 a.u.
TGCGCAACAACTTGTCACCTTACTTTATGTCTAGAA	3420 a.u.
GCCGCATTGCACCTTGTCGTGATGGATTCTAAGTAC	5230 a.u.
CGGCCGGCCGAAAGCCATGCGGCCCAACAAGCGGCG	4660 a.u.

Sample 3
Target: Replicase polyprotein 1ab, polymerase (rep, Severe acute respiratory syndrome coronavirus 2, UniProt P0DTD1)
Effect on: enzyme activity
Action: inhibitor
Concentration: 20 µM
SMILES	inhibition [%]
C[N+](C)(C)CCOP(=O)([O-])OC[C@H](O)CO	-0.93
C=C(c1ccccc1OCc1cccc(Cl)c1)n1ccnc1	-2.78
COc1cc2nc(N(C)CCCNC(=O)C3CCCO3)nc(N)c2cc1OC (stereo not drawn)	2.98
CNC(=O)c1nn(C)c2c1C(C)(C)Cc1cnc(Nc3ccc(N4CCN(C)CC4)cc3)nc1-2	-2.68
CC[C@H]1[C@@H]2C[C@H]3[C@@H]4N(C)c5ccccc5[C@]45C[C@@H]([C@H]2[C@H]5O)N3[C@@H]1O	-0.28
CCCN(CCC)CCc1ccc(OC)c(OCCc2ccccc2)c1	0.14
Cc1ccc2c(c1)[C@H]1CN(C)CC[C@H]1N2	2.76
Nc1ccn([C@@H]2O[C@@](CO)(CCl)[C@@H](O)[C@H]2F)c(=O)n1	-0.79
CC(C)(C)Sc1c(CC(C)(C)C(=O)O)n(Cc2ccc(Cl)cc2)c2ccc(OCc3ccc4ccccc4n3)cc12	1
CCCN(CCC)C1CCc2ccc(O)cc2C1 (stereo not drawn)	-5.17
CCC[C@H](NC(=O)/C(C#N)=C/c1cccc(Br)n1)c1ccccc1	-2.23
CCOc1cc(C(=O)N2CCC(N3CCN(C)CC3)CC2)ccc1Nc1ncc2c(n1)N(C1CCCC1)c1ccccc1C(=O)N2C	-1.85
Nc1nc(Nc2ccccc2)nc2c1ncn2[C@@H]1O[C@H](CO)[C@@H](O)[C@H]1O	3.88
CC(C)(C)C(=O)OCOP(=O)(COCCn1cnc2c(N)ncnc21)OCOC(=O)C(C)(C)C	-0.43
CC(=O)Nc1nc2c(Oc3cc(-c4ccc(C(F)(F)F)cc4)ncn3)cccc2s1	8.6
CC1Cc2ccccc2N1NC(=O)c1ccc(Cl)c(S(N)(=O)=O)c1 (stereo not drawn)	17
NS(=O)(=O)c1cc2c(cc1Cl)NC(CC1CCCC1)NS2(=O)=O (stereo not drawn)	-2.64
COc1cc2c(cc1F)C(c1ccccc1Cl)=Nc1c(n[nH]c1C)N2	-2.16
Cc1cccc(Nc2nc(-c3ccncc3)cs2)c1	-5.59
N#Cc1ccc(N(Cc2ccc(Br)cc2)n2cnnc2)cc1	-0.19
C/C(=C\C(=O)Nc1ccccc1C(=O)O)c1ccc2ccccc2c1	36
O=C(O)c1cc2ccccc2s1	-1.86
NC[C@@H]1CC[C@@H](N)[C@@H](O[C@H]2[C@H](O)[C@@H](O[C@H]3O[C@H](CO)[C@@H](O)[C@H](N)[C@H]3O)[C@H](N)C[C@@H]2N)O1	-7.71
Cc1ccc(CC2(O)CCN(CCOc3ccc(O)cc3)CC2)cc1	-0.48
NC(=O)c1cnc2[nH]ccc2c1N[C@@H]1[C@@H]2CC3C[C@H]1C[C@@](O)(C3)C2	1.88

Sample 4
Cell line: HEK-293T/ACE2
Concentration: concentration not given
Time: 16 (unit not given)
Reference: vehicle
SMILES	viability
CC(=O)O[C@H]1CC[C@@]2(C)C(=CC[C@@H]3[C@@H]2CC[C@]2(C)C(c4cccnc4)=CC[C@@H]32)C1	102%
Nc1nc(Cl)nc2c1ncn2[C@@H]1O[C@H](CO)[C@@H](O)[C@@H]1F	84.6%
CCCCCCC(=O)O[C@H]1CC[C@H]2[C@@H]3CCC4=CC(=O)CC[C@]4(C)[C@H]3CC[C@]12C	102%
CCCCC(=O)N(Cc1ccc(-c2ccccc2-c2nnn[nH]2)cc1)[C@H](C(=O)O)C(C)C	101%

Sample 5
Target: Protein C-ets-1 (ETS1, Homo sapiens, UniProt P14921, residues 1-441, full length assumed)
Technique: protein-binding microarray
Molecule type: double-stranded DNA, one strand shown
Sample: in vitro
Concentration: not given
Notes: k-mer, scored over probes, only values ≥0.25
Direction: higher = stronger binding
Target sequence (chain): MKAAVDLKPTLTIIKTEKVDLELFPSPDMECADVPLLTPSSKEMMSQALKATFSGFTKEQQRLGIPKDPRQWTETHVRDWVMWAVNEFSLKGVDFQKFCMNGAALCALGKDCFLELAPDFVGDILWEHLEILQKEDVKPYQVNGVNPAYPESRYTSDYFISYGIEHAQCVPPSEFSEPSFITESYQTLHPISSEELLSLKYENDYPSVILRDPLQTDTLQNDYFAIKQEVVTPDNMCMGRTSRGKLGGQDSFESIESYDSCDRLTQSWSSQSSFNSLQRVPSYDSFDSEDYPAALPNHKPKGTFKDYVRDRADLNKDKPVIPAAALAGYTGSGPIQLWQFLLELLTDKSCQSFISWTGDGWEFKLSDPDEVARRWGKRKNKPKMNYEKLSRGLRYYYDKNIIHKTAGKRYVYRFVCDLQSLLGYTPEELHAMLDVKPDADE
Oligonucleotide	E-score
CACCCCGC	0.252
ACTACGGA	0.327
ACGGAAAT	0.465
AAGGAGGA	0.322
ACATCCAC	0.3
CAGGAACA	0.306

Sample 6
Target: Sal-like protein 4, full length isoform B (SALL4, Homo sapiens, UniProt Q9UJQ4-2, residues 1-616)
Technique: universal PBM
Molecule type: double-stranded DNA, one strand shown
Sample: in vitro
Concentration: not given
Notes: 8-mer, flanks averaged, mean of replicates
Direction: higher = stronger binding
Oligonucleotide	E-score
AAATTGCA	0.199
AGCCTTGG	-0.121
GAACTATC	-0.00718
CAACGCAG	-0.25
GTAATGAC	0.135
TGCACGCA	-0.139
CCAGAGTA	-0.16
GTACAGAA	-0.0168

Some of these lines once more (sample 3):
SMILES	inhibition [%]
CC(=O)Nc1nc2c(Oc3cc(-c4ccc(C(F)(F)F)cc4)ncn3)cccc2s1	8.6
CC1Cc2ccccc2N1NC(=O)c1ccc(Cl)c(S(N)(=O)=O)c1 (stereo not drawn)	17
NS(=O)(=O)c1cc2c(cc1Cl)NC(CC1CCCC1)NS2(=O)=O (stereo not drawn)	-2.64
COc1cc2c(cc1F)C(c1ccccc1Cl)=Nc1c(n[nH]c1C)N2	-2.16
Cc1cccc(Nc2nc(-c3ccncc3)cs2)c1	-5.59
